Experimental data from different studies.
Numbers after ± are the reported error.
CDK4 with cyclin D3: Cyclin-dependent kinase 4, with cyclin D3 (CDK4, Homo sapiens, UniProt P11802)
Chain of UniProt P11802 (whole entry, looked up): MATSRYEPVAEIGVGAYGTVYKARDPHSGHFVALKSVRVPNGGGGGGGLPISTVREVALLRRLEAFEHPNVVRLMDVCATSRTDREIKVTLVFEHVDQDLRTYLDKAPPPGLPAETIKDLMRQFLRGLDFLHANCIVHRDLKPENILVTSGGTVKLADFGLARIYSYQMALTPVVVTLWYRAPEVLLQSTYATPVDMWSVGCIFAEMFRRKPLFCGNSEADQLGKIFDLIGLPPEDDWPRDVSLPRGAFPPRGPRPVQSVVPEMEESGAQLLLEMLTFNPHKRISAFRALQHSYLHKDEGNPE
Sigmar1: Sigma non-opioid intracellular receptor 1 (Sigmar1, Rattus norvegicus, UniProt Q9R0C9)
Chain of UniProt Q9R0C9 (whole entry, looked up): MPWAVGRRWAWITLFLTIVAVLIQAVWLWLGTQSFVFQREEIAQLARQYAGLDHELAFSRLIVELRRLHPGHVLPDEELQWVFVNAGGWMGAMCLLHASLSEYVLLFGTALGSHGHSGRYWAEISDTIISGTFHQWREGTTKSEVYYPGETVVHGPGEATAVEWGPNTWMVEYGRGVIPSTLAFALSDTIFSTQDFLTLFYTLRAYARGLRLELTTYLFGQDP
PDK1: [Pyruvate dehydrogenase (acetyl-transferring)] kinase isozyme 1, mitochondrial (PDK1, Homo sapiens, UniProt Q15118)
Chain of UniProt Q15118 (whole entry, looked up): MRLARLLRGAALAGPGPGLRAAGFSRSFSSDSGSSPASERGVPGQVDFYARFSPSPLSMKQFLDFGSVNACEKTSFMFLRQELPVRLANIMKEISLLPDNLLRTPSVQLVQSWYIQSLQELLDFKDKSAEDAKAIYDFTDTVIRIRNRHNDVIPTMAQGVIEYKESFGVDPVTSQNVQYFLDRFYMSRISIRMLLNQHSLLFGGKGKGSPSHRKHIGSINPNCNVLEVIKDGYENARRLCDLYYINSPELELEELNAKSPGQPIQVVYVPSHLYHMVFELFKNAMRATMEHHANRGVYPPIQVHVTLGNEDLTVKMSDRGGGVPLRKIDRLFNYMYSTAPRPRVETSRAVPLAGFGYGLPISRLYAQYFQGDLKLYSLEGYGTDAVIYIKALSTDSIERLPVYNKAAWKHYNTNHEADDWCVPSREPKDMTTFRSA
hdac10: Polyamine deacetylase HDAC10 (hdac10, Danio rerio, UniProt F1QCV2)
Chain of UniProt F1QCV2 (whole entry, looked up): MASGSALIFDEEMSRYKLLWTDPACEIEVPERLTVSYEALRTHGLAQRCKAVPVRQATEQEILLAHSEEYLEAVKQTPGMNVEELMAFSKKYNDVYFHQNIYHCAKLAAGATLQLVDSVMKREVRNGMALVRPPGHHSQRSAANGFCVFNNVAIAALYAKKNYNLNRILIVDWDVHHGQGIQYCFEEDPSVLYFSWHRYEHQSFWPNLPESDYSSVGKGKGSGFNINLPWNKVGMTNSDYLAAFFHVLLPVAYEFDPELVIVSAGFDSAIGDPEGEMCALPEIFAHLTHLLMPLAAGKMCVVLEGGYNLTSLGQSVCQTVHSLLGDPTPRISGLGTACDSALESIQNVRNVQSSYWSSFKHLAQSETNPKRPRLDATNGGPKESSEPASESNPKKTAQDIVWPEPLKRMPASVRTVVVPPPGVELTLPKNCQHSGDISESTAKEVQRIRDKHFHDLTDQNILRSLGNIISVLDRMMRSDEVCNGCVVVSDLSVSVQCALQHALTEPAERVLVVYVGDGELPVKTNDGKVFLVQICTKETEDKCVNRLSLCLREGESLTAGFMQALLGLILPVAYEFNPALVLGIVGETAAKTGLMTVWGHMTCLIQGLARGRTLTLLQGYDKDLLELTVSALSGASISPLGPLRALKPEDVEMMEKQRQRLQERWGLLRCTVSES
AKR1C2: Aldo-keto reductase family 1 member C2 (AKR1C2, Homo sapiens, UniProt P52895)
Chain of UniProt P52895 (whole entry, looked up): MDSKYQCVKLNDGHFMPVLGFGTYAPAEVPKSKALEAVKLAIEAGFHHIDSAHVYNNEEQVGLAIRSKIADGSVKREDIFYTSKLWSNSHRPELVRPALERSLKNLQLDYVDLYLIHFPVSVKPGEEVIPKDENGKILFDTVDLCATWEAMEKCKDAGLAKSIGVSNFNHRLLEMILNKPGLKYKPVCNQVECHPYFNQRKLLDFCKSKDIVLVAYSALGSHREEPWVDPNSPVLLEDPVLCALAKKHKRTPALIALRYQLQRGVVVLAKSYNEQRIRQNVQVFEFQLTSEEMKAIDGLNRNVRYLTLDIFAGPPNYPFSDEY
Tripartite terminase subunit 3 C-terminal nuclease domain: Tripartite terminase subunit 3, C-terminal nuclease domain (Human betaherpesvirus 5, UniProt P16732)
Chain of UniProt P16732 (whole entry, looked up): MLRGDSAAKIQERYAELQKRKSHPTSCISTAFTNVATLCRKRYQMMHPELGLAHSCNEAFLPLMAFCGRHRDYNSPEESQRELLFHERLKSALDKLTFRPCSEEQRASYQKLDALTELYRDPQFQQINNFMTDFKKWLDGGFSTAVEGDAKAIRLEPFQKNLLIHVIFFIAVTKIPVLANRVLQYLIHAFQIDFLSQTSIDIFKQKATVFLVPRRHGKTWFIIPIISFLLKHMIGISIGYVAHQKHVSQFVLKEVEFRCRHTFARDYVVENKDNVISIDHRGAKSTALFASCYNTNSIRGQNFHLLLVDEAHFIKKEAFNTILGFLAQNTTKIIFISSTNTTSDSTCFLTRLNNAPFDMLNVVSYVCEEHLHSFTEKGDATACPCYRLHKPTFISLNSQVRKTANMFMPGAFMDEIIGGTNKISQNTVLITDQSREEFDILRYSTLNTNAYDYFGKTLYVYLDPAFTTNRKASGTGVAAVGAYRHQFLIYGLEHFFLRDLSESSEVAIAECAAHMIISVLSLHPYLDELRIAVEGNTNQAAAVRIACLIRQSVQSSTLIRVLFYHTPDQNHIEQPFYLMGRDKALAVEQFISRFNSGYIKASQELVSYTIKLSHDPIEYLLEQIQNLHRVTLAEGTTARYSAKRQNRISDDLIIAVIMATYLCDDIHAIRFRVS
ELANE: Neutrophil elastase (ELANE, Homo sapiens, UniProt P08246)
Chain of UniProt P08246 (whole entry, looked up): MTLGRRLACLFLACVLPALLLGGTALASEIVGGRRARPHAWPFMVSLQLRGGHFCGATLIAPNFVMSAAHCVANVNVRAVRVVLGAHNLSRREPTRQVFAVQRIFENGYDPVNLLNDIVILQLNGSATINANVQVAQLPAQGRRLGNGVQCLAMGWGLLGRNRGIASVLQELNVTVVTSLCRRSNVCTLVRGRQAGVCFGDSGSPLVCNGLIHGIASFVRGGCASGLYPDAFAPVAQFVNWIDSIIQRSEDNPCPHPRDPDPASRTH
Ectonucleoside triphosphate diphosphohydrolase 3: Ectonucleoside triphosphate diphosphohydrolase 3 (Homo sapiens, UniProt O75355)
Chain of UniProt O75355 (whole entry, looked up): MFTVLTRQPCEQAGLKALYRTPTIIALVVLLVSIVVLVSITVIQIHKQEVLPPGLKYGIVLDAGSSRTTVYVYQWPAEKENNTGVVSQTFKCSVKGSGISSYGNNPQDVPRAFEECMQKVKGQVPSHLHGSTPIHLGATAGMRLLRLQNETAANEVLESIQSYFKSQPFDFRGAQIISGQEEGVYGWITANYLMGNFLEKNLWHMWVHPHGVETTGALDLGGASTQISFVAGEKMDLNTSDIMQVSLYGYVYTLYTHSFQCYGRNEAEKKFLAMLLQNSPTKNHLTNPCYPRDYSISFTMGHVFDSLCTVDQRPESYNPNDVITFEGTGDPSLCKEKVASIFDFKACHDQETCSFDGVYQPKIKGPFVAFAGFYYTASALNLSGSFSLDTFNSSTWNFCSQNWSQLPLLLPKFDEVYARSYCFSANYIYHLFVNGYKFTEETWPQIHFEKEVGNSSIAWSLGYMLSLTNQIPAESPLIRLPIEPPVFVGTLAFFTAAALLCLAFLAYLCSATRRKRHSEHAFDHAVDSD
PNLIP: Pancreatic triacylglycerol lipase (PNLIP, Sus scrofa, UniProt P00591)
Chain of UniProt P00591 (whole entry, looked up): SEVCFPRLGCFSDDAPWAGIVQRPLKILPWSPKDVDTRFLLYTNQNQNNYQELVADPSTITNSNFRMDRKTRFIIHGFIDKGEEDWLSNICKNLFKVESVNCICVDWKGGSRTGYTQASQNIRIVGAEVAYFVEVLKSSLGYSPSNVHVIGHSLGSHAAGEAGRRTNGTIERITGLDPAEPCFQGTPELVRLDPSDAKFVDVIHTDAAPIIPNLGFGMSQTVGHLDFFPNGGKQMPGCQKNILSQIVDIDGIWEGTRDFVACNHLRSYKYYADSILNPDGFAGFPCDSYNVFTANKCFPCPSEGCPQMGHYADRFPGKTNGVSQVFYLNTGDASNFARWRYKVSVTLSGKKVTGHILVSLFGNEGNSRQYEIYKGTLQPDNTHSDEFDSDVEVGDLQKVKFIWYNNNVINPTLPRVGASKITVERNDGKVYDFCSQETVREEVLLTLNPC
Chain of UniProt Q8WUX1 (whole entry, looked up): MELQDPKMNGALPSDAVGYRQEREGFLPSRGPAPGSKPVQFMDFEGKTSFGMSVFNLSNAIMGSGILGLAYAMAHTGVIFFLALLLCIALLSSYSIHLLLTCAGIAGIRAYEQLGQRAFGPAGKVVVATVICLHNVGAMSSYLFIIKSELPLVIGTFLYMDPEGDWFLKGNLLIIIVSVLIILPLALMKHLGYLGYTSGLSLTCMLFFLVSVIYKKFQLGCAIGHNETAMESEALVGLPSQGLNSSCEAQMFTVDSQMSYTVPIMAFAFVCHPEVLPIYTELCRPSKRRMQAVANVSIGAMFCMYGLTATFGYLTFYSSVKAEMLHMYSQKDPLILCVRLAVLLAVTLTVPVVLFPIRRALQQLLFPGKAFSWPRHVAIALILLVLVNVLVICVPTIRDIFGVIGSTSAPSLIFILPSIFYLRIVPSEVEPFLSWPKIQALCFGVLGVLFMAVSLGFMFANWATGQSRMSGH
Chain of UniProt Q8R2Y0 (whole entry, looked up): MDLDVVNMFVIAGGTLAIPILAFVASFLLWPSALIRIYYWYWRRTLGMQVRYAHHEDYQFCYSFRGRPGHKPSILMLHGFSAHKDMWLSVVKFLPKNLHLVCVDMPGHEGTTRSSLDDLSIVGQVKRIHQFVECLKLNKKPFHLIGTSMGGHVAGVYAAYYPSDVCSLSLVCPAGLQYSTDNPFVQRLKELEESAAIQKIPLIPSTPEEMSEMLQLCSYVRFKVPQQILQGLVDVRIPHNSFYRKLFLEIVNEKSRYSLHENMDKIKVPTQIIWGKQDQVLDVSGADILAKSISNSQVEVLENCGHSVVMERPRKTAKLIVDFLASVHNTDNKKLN

| Compound | target | assay | system | setting | inhibition |
| --- | --- | --- | --- | --- | --- |
| O=C(CCCCCCN1CCN(c2ccc(Nc3ncc(F)c(-c4cn(C5CCCC5)nn4)n3)cc2)CC1)NO | CDK4 with cyclin D3 | enzyme activity, inhibitor, TR-FRET | – | 5 µM | 96.6% |
| C/C(=N\OCCCCN1CCOCC1)c1ccc(C(F)(F)F)cc1 | Sigmar1 | radioligand binding | – | 10 µM | 81.8% |
| Cn1nc(-c2cccc(O)c2)c2c(N)ncnc21 | Protein-tyrosine kinase 6 (PTK6, Homo sapiens, UniProt Q13882) | enzyme activity, inhibitor, ADP detection | – | 0.2 µM | 91% |
| CC(C)Cn1cc(-c2ccnc(Nc3ccc(OCCCCCCC(=O)NO)cc3)n2)nn1 | CDK4 with cyclin D3 | enzyme activity, inhibitor, TR-FRET | – | 50 nM | 1.99% |
| O=c1c(-c2nc3ccccc3s2)cc2c(n1NS(=O)(=O)c1ccc(Cl)cc1)CCCCCC2 | Ubiquitin carboxyl-terminal hydrolase 7 (USP7, Homo sapiens, UniProt Q93009) | enzyme activity, inhibitor, fluorescence | – | 10 µg/mL | 55% |
| CCCC1CCC(c2ccc(C(=O)NC(C(=O)O)C(C)C)cc2)CC1 (stereo not drawn) | Sodium channel protein type 9 subunit alpha (SCN9A, Homo sapiens, UniProt Q15858, R1619A) | inhibitor | – | 66 µM, R1608A mutant | 41 ± 12.8% |
| Clc1nc(-c2ccccc2)nc2scc(-c3ccccc3)c12 | Programmed cell death 1 ligand 1, with PD-1 (CD274, Homo sapiens, UniProt Q9NZQ7) | PD-1/PD-L1 binding, inhibitor, TR-FRET | – | 25 µM | ≥ 20% |
| C/C(=N\OCCCN1CCCC1)c1ccc(C(F)(F)F)cc1 | Sigmar1 | radioligand binding | – | 10 µM | 94% |
| CC(C)c1ccc(COc2ccc(CC(=O)NCCN)cc2Cl)cc1 | PDK1 | enzyme activity, inhibitor, ATP luminescence | – | 1 µM | 54.7% |
| Fc1ccccc1-n1c(-c2ccccc2)cs/c1=N/N=C/c1ccc(N2CCOCC2)cc1 | Carbonic anhydrase 2 (CA2, Bos taurus, UniProt P00921) | enzyme activity, inhibitor, absorbance | – | 500 µM | 78.4% |
| NCC(O)(C(=O)O)c1ccc(NCc2cnc3nc(N)nc(N)c3n2)cc1 (stereo not drawn) | Dihydrofolate synthase/folylpolyglutamate synthase (Escherichia coli, UniProt P08192) | enzyme activity, PK/LDH-coupled | – | 56 µM | 35 ± 13% |
| COc1ccc(C(=O)NO)cc1NC(=O)c1ccc(-c2ccccc2)cc1 | hdac10 | – | – | 0.1 µM | < 10% |
| C[C@]12CC[C@@H]3c4cc(Br)c(O)cc4CC[C@H]3[C@@H]1CCC2=O | AKR1C2 | enzyme activity, inhibitor, absorbance | – | 100 µM, pH 9 | 25% |
| CCOC(=O)C1=C(C)NC2=C(C(=O)CC(C)(C)C2)C1c1ccc(OCC(=O)NN=Cc2cccc([N+](=O)[O-])c2)cc1OCC(=O)NN=Cc1cccc([N+](=O)[O-])c1 (stereo not drawn) | Alpha-glucosidase MAL32 (MAL32, Saccharomyces cerevisiae, UniProt P38158) | inhibitor | – | 0.5 mM, pH 6.8, 37 °C | 90.6% |
| Cc1cccc(/C=C/C(=O)c2cnn(-c3ccccc3)c2C)c1 | Pancreatic alpha-amylase (AMY2, Sus scrofa, UniProt P00690) | enzyme activity, inhibitor, absorbance | – | 10 µM | 12.9% |
| C[C@@]12CC[C@@H]3c4ccc(O)cc4CC[C@H]3[C@@H]1CCC2=O | AKR1C2 | enzyme activity, inhibitor, absorbance | – | 10 µM, pH 9 | 3.5% |
| C/C(=N\OCCN1CCCC1)c1cccc(C(F)(F)F)c1 | Sigmar1 | radioligand binding | – | 10 µM | 56.4% |
| COC(=O)c1[nH]c(=O)c2cccnc2c1O | Tripartite terminase subunit 3 C-terminal nuclease domain | endonuclease activity, ELISA | – | 10 µM | 14 ± 0.5% |
| CC(=O)Nc1cc(COc2c(Cl)cc(CC(N)C(=O)O)cc2Cl)c2oc(-c3ccccc3)nc2c1 (stereo not drawn) | SLC38A5 (Homo sapiens, UniProt Q8WUX1) | glutamine uptake | Xenopus oocytes | 1 and 10 µM, 30 min, together with: L-[14C]glutamine 50 µM | no inhibition |
| O=C(O[C@H](CO)C(F)(F)F)N1C[C@@H]2[C@H](C1)[C@H]2c1ccn(-c2ccc(F)nc2)n1 | Monoacylglycerol lipase ABHD6 (Abhd6, Mus musculus, UniProt Q8R2Y0) | ABPP | mouse brain lysate | 0.2 µmol/L | no inhibition |
| CCc1nc2ccccc2n1S(=O)(=O)c1ccc2c(c1)C(=O)CC2=O | ELANE | enzyme activity, inhibitor, fluorescence | – | 10 µM | 64% |
| COC(=O)c1cn(Cc2ccc(F)cc2)cc(OC)c1=O | Tripartite terminase subunit 3 C-terminal nuclease domain | endonuclease activity, inhibitor, ELISA | – | 20 µM | 8% |
| O=C(c1cccc(S(=O)(=O)N2CCOCC2)c1)N1CCOCC1 | Ectonucleoside triphosphate diphosphohydrolase 3 | enzyme activity, inhibitor, absorbance | – | 100 µM | 37% |
| CC(=O)OC1CCC2(C)C(CCC3(C)C2CCC2C(C4=CC(C=C(C)C)OC4=O)CCC23C)C1(C)C (stereo not drawn) | Tyrosine-protein phosphatase non-receptor type 1 (PTPN1, Homo sapiens, UniProt P18031) | enzyme activity, inhibitor, absorbance | – | 50 µM | 51.5% |
| O=C1C=C(O)C(=O)c2ccccc21 | 1-deoxy-D-xylulose 5-phosphate reductoisomerase (Escherichia coli K-12, UniProt P45568) | enzyme activity, inhibitor, absorbance | – | 100 µM | 100% |
| O=C(O)c1cccc(S(=O)(=O)N2CCOCC2)c1 | Ectonucleoside triphosphate diphosphohydrolase 3 | enzyme activity, inhibitor, absorbance | – | 100 µM | 35% |
| O=C(NO)c1ccc(Cl)c(NC(=O)c2cccc(OCc3ccccc3)c2)c1 | hdac10 | – | – | 1 µM | 20% |

| Compound | target | assay | system | setting | inhibition |
| --- | --- | --- | --- | --- | --- |
| COc1ccc2c(c1)CC[C@@H]1[C@@H]2CC[C@]2(C)C(=O)CC[C@@H]12 | AKR1C2 | enzyme activity, inhibitor, absorbance | – | 10 µM, pH 9 | 4.8% |
| C/C(=N\OCCCN(C)Cc1ccccc1)c1ccc(C(F)(F)F)cc1 | Sigmar1 | radioligand binding | – | 10 µM | 100% |
| O=[N+]([O-])c1ccc2c(c1)S(=O)(=O)C=C2 | Signal transducer and activator of transcription 3 (STAT3, Homo sapiens, UniProt P40763) | IL6-induced phosphorylation | HepG2 | 10 µM, together with: IL6 | ~75% |
| COc1ccc(C(=O)NO)cc1NC(=O)c1cccc(-c2ccccc2)c1 | hdac10 | – | – | 1 µM | < 10% |
| O=C(c1ccc(F)cc1)C1CCN(CCCCn2c(=O)[nH]c3ccccc32)CC1 | 5-hydroxytryptamine receptor 7 (HTR7, Homo sapiens, UniProt P34969) | cAMP production | HEK293 expressing h5-HT7R | concentration not given | ~75% |
| C[C@@]12CC[C@@H]3c4ccc(O)c(Br)c4CC[C@H]3[C@@H]1CCC2=O | AKR1C2 | enzyme activity, inhibitor, absorbance | – | 10 µM, pH 9 | 80% |
| CN(C)c1ccc(C(=O)NCC2CCC(C(=O)NO)CC2)cc1 (stereo not drawn) | hdac10 | – | – | 1 µM | 19% |
| O=C(/C=C/c1ccc2c(c1)OCCO2)c1ccc(Cl)s1 | Amine oxidase [flavin-containing] B (MAOB, Homo sapiens, UniProt P27338) | enzyme activity, inhibitor, fluorescence | – | 1 µM | 89.5% |
| Cc1[nH]c2ccccc2c1CCNC(=O)c1cccs1 | ACTR3/Actin-related protein 2 (Homo sapiens, UniProt P61158+P61160) | actin polymerization, pyrenyl-actin | – | 20 µM, together with: 300 nM ActA | inhibited |
| O=C(c1ccc(OCCCO)c([N+](=O)[O-])c1)C(Cl)Cl | PDK1 | enzyme activity, inhibitor, ATP luminescence | – | 10 µM | 33.2 to 39.1% |
| C[C@H](NC(=O)CNC(=O)[C@H](Cc1ccc(O)cc1)NC(=O)[C@@H](N)CSSC[C@H](N)C(=O)N[C@@H](Cc1ccc(O)cc1)C(=O)NCC(=O)N[C@@H](C)C(=O)N[C@@H](CCCCN)C(N)=O)C(=O)N[C@@H](CCCCN)C(N)=O | Calpain-10, mitochondrial (Oryctolagus cuniculus, UniProt G1TPK4) | enzyme activity, inhibitor | rabbit mitochondrial matrix | concentration not given, presence versus absence of Ca2+, together with: Ca2+ 6 mM | no effect |
| CN(CCON=C(c1ccccc1)c1ccc(C(F)(F)F)cc1)Cc1ccccc1 (mixture of isomers) | Sigmar1 | radioligand binding | – | 1 µM | 67.4% |
| O=C1CC(=O)c2cc(S(=O)(=O)n3cnc4ccccc43)ccc21 | ELANE | enzyme activity, inhibitor, fluorescence | – | 1 µM | 19.8% |
| O=C(/C=C/c1ccc2ccccc2c1)NO | hdac10 | – | – | 0.1 µM | 46% |
| Oc1ccc([C@H]2Oc3cc(O)cc(O)c3C[C@H]2O)cc1 | PNLIP | enzyme activity, inhibitor | – | 10 µM | 44.9% |
| S=C(Nc1ccccc1Cl)Nc1cccc2cccnc12 | Beta-glucuronidase (uidA, Escherichia coli, UniProt P05804) | enzyme activity, inhibitor, absorbance | – | 100 µM | 50.9% |
| O=C(O)c1cc(S(=O)(=O)Nc2ccc(Br)cc2)ccc1Cl | Ectonucleoside triphosphate diphosphohydrolase 8 (Homo sapiens, UniProt Q5MY95) | enzyme activity, inhibitor, absorbance | – | 100 µM | 25% |
| NC(=O)c1ccc(C(=O)NOCc2ccc(Sc3cccc(Cl)c3)c(C(F)(F)F)c2)cc1 | Histone deacetylase 7 (HDAC7, Homo sapiens, UniProt Q8WUI4) | cell-free assay, inhibitor | – | 100 µM | 22.1% |
| Nc1ccccc1NC(=O)c1ccc(Nc2nccc(-c3cn(C4CCCC4)nn3)n2)cc1 | CDK4 with cyclin D3 | enzyme activity, inhibitor, TR-FRET | – | 5 µM | 6.94% |
| O=C1C[C@@H](c2ccc(O)c(O)c2)c2c(cc(O)c3c2O[C@H](c2ccc(O)c(O)c2)[C@H](O)C3)O1 | α-glucosidase (Saccharomyces cerevisiae) | inhibitor | – | 10 µg/mL, together with: pNPG | 40.07 ± 0.27% |
| COc1ccc(Br)c(/C=C/C(=O)NO)c1 | hdac10 | – | – | 0.1 µM | 11% |
| COc1cc(C(=O)NC2CCC(N3CCN(CC4CCC5(CCCC5)C4)CC3)CC2)c(F)cc1Nc1ncc2c(n1)N(C1CCCC1(F)F)CC(F)(F)C(=O)N2C (stereo not drawn) | Focal adhesion kinase 1 (PTK2, Homo sapiens, UniProt Q05397) | cell-free assay, TR-FRET | – | 10 µM | 3.08% |
| O=C(O[C@@H]1Cc2c(O)cc(O)cc2O[C@@H]1c1ccc(O)c(O)c1)c1cc(O)c(O)c(O)c1 | PNLIP | enzyme activity, inhibitor | – | 10 µM | 91.8% |
| C[C@@]12CC[C@@H]3c4cc(Cl)c(O)cc4CC[C@H]3[C@@H]1CCC2=O | AKR1C2 | enzyme activity, inhibitor, absorbance | – | 100 µM, pH 9 | 75.4% |
| O=c1cc(CCl)[nH]c2c(-c3cccc4ccccc34)c(C(F)(F)F)nn12 | Sodium channel protein type 9 subunit alpha (SCN9A, Homo sapiens, UniProt Q15858) | sodium current, whole-cell patch clamp | HEK293, stable | 20 µM | 7 ± 3% |
| C[C@@]12CC[C@@H]3c4cc(I)c(O)c(I)c4CC[C@H]3[C@@H]1CCC2=O | AKR1C2 | enzyme activity, inhibitor, absorbance | – | 100 µM, pH 9 | 45% |
| O=C(/C=C/c1cc(F)ccc1Br)NO | hdac10 | – | – | 1 µM | 50% |

Repeated from above:
| Compound | target | assay | system | setting | inhibition |
| --- | --- | --- | --- | --- | --- |
| O=C(/C=C/c1ccc2c(c1)OCCO2)c1ccc(Cl)s1 | Amine oxidase [flavin-containing] B (MAOB, Homo sapiens, UniProt P27338) | enzyme activity, inhibitor, fluorescence | – | 1 µM | 89.5% |
| Cc1[nH]c2ccccc2c1CCNC(=O)c1cccs1 | ACTR3/Actin-related protein 2 (Homo sapiens, UniProt P61158+P61160) | actin polymerization, pyrenyl-actin | – | 20 µM, together with: 300 nM ActA | inhibited |
| O=C(c1ccc(OCCCO)c([N+](=O)[O-])c1)C(Cl)Cl | PDK1 | enzyme activity, inhibitor, ATP luminescence | – | 10 µM | 33.2 to 39.1% |
| C[C@H](NC(=O)CNC(=O)[C@H](Cc1ccc(O)cc1)NC(=O)[C@@H](N)CSSC[C@H](N)C(=O)N[C@@H](Cc1ccc(O)cc1)C(=O)NCC(=O)N[C@@H](C)C(=O)N[C@@H](CCCCN)C(N)=O)C(=O)N[C@@H](CCCCN)C(N)=O | Calpain-10, mitochondrial (Oryctolagus cuniculus, UniProt G1TPK4) | enzyme activity, inhibitor | rabbit mitochondrial matrix | concentration not given, presence versus absence of Ca2+, together with: Ca2+ 6 mM | no effect |
| CN(CCON=C(c1ccccc1)c1ccc(C(F)(F)F)cc1)Cc1ccccc1 (mixture of isomers) | Sigmar1 | radioligand binding | – | 1 µM | 67.4% |
